Assay results gathered from unrelated publications.
Compare with care: the assays were run in different laboratories. Several values in a cell are separate wells, animals, samples, runs or records.
Target: Tyrosine-protein kinase Fes/Fps (FES, Homo sapiens, UniProt P07332)
Sequence of UniProt P07332 (whole entry, looked up): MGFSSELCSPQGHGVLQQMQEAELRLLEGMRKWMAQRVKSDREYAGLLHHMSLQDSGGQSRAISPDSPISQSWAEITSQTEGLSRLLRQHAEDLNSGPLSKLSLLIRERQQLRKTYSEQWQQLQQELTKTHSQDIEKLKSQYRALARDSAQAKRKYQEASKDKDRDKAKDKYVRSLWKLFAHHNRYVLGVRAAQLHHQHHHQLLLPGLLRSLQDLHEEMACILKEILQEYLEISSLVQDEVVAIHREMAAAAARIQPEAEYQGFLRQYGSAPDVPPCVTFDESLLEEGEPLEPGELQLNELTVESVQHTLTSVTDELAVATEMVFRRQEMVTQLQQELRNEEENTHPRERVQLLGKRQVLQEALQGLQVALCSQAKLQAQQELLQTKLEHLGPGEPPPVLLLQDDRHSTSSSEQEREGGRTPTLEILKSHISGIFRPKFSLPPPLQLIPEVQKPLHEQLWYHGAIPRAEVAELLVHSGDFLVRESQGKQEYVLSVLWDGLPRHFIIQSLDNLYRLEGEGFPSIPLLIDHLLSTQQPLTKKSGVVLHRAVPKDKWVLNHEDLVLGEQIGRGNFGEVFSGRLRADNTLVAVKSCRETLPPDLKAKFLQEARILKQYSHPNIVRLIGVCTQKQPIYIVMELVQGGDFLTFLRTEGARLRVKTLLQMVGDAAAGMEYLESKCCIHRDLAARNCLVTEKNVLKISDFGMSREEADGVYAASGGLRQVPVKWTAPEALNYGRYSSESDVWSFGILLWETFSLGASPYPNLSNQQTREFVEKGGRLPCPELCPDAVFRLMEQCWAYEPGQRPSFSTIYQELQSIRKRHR

Nc1ncc(-c2cc(-c3cnn(CC(F)(F)F)c3)ncc2F)nc1C(=O)NC1CNCC(F)C1 (stereo not drawn) has a remaining activity of 90% (enzyme activity; 1 µM; relative to: DMSO control).
For COCC12C(=O)NC3C4(C(OC)CC1O)C1CC5(O)C(OC)C(O)C(OC(C)=O)(C1C5OC(=O)c1ccccc1)C3(O)C(OC)C24 (stereo not drawn), the remaining activity was 105% and 106% (kinase activity, inhibitor, ProQinase kinase profiling; 25 µM; relative to: control).
Nc1ncc2c(n1)-c1c([nH]c3ccc(C4=CCOCC4)cc13)CCC2 has a remaining binding of 99% (binding, competition with immobilised ligand; 1 µM).
O=C(Cc1ccc(OCc2ccccc2)cc1)NC1(C(=O)O)CCN(C(=O)c2ccc(-c3cccc(Cl)c3)cc2)CC1: “activity vs control” 130% (enzyme activity, inhibitor; 10 µM).
NC(=O)[C@@H](O)C[C@H]1CCc2sc3ncnc(O[C@H]4CC[C@H](N5CCOCC5)CC4)c3c21 has an inhibition of 15% (enzyme activity, inhibitor; 10 µM).
CN1CCN(Cc2ccc(-c3ccc(CO[C@H]4CCC[C@@H]4NC(=O)c4cc(-c5cnn(C)c5)cnc4N)cc3)cc2)CC1 gave an inhibition of 2% (enzyme activity, inhibitor; 0.1 µM).
With COc1ccc(NC(=O)Nc2ccc3c(c2)C(=O)N(C(C)CO)CC(C)C(CN(C)Cc2ccc4c(c2)OCO4)O3)cc1 (stereo not drawn) the remaining activity was 96% (kinase activity; 0.03 µM; relative to: control).
CNC(=O)C1CCN(c2cc(C)c(F)cc2NC(=O)c2ccc(-c3cc(O)ccc3C)c(C)c2)CC1 gave a remaining binding of 100% (binding, competition with immobilised ligand; 1 µM).
For O=C=[N][Ru-4]123([n]4c5ccc(O)cc5c5c6c(c7cc(F)c[n+]1c7c54)C(=O)NC6=O)[S+]1CC[S+]2CC[S+]3CC1 (stereo not drawn), the remaining activity was 97% (enzyme activity; 100 nM, human enzyme, together with: 10 µM ATP; relative to: untreated).
The inhibition of Cc1cccc(O[C@H]2CCC[C@@H](C(C)CNCc3ccncc3)C2)c1 (relative stereo) is reported as 2% (enzyme activity, inhibitor; 1 µM).
The remaining binding of C=CC(=O)N1CCc2ccc(-n3c(=O)ccc4cnc5ccc(-c6cnn(C)c6)cc5c43)cc21 is reported as 94% (KINOMEscan; 1 µM; relative to: DMSO control).
With C=CC(=O)Nc1cccc(-c2cnc3[nH]cc(C(=O)NC(C)(C)C)c3n2)c1 the inhibition was 8% (enzyme activity, inhibitor; 0.1 µM).
With CCn1cc(C(=O)O)c(=O)c2c(N)c(F)c(NC3CCCCC3)cc21 the inhibition was 3.8% (kinase activity; 0.1 µM, together with: ATP at Km).
The remaining binding of CC(C)=CC1OC(C)(C)C2C=C3C(=O)C(Cl)=CC(O)C3C3C(O)C4OC4C(=O)C132 (stereo not drawn) is reported as 75% (cell-free assay, competition with immobilised ligand; 10 µM).
Cc1cnc2nc1Nc1cccc(c1)COC/C=C/COCc1cc(ccc1OCCN1CCOCC1)N2 has a remaining binding of 97% (binding; 0.1 µM).
